Measurements from different studies.
Parts stem from different laboratories: compare values within a part only. Substitutions count along the parent as printed.

Sample 1 — target: CCNE1, cyclin fold, Cln2 fusion (human); technique: yeast growth competition, sequencing; medium: yeast; notes: weak parent motif; baseline: not given; direction: higher = stronger binding
Starting sequence: RB1 docking peptide (human); PKPLKKLRFDIEG
`L7S`: “normalised enrichment score” 0.354.
`I11V` — result for “normalised enrichment score”: 0.151.
`P3F` — result for “normalised enrichment score”: 0.135.
`L4T`: “normalised enrichment score” 0.0533.
`D10H` — result for “normalised enrichment score”: 0.758.
`E12C` — result for “normalised enrichment score”: 0.553.
`R8I`: “normalised enrichment score” 0.279.
Under “normalised enrichment score”, `L7T` is recorded as 0.000478.
Under “normalised enrichment score”, `E12I` is recorded as 2.01.
Under “normalised enrichment score”, `R8K` is recorded as 0.427.
`P1L`: “normalised enrichment score” -0.431.
`P3L`: “normalised enrichment score” 0.498.
For `L7M`, “normalised enrichment score” read 0.471.
`P3R`: “normalised enrichment score” 0.264.

Sample 2 — technique: protein-binding microarray; form: double-stranded DNA, one strand shown; medium: in vitro; concentration: 0.8 µM; notes: whole 60-bp probe, no competitor; direction: higher = stronger binding
Target: Centromere-binding protein 1, full length, N-terminal tag (CBF1, Saccharomyces cerevisiae, UniProt P17106, residues 1-351)
UniProt P17106, sequence (whole entry, looked up): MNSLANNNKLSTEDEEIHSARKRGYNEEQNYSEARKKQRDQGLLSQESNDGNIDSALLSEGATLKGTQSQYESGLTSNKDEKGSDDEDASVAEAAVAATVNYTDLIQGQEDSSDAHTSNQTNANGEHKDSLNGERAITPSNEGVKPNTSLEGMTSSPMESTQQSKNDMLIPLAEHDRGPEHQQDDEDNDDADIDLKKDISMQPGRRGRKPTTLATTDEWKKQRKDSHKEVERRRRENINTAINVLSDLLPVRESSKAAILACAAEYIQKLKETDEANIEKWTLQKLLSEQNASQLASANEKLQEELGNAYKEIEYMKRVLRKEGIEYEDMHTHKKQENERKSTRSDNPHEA
The fluorescence intensity of `GAATGCCTTGCCTCTCCCGTGCTTTTTTGTTTTTAGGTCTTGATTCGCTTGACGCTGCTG` is reported as 579 a.u.
`CCTAACTACTATAAAAACATCATATAGCTTCGTACAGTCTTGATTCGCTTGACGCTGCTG` gave a fluorescence intensity of 537 a.u.
`CCTAACTACTATAACGTGCCCGTATAGCTTCGTACAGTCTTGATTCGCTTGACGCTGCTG` has a fluorescence intensity of 733 a.u.
The fluorescence intensity of `CTATTCATTAATCGCCACCTGATGTTTTTCGCTTTCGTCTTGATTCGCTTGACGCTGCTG` is reported as 829 a.u.
`GAATTAAAGACTCACCACGTTCAACTTTGAATTTAGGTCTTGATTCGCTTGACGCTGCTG` has a fluorescence intensity of 547 a.u.
`CTAATAGGGTCATGTCACGTAATAAGCAACGTGTTCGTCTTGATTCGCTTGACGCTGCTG` has a fluorescence intensity of 820 a.u.
`CCTAACTACTATACGTACGTGCGATAGCTTCGTACAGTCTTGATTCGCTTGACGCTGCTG` has a fluorescence intensity of 494 a.u.
For `GAAGTACGCCTTTTCCGCGTGCGCCGGTCTTTATAGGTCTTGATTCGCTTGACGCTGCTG`, the fluorescence intensity was 592 a.u.
The fluorescence intensity of `CTAGACAAAGAGTATGACGTGAAAATGATGCGCTTCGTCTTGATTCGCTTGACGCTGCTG` is reported as 583 a.u.
With `GAAGATCCTTCTTACCGCGTGCTGGGTGAAAAGTAGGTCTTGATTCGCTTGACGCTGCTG` the fluorescence intensity was 635 a.u.
The fluorescence intensity of `CTAACGTCAAGATTCTCCGTGACTATGGCTCTTTTCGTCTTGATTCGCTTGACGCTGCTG` is reported as 544 a.u.
`CTAGTTCCATAGTGTGATCTGATGTTCCTTTCTTTCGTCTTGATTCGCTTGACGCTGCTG` has a fluorescence intensity of 612 a.u.

Sample 3 — technique: universal PBM; form: double-stranded DNA, one strand shown; medium: in vitro; concentration: 600 nM; direction: higher = stronger binding
Target: Sal-like protein 4, full length isoform A (SALL4, Homo sapiens, UniProt Q9UJQ4, residues 1-1053)
UniProt Q9UJQ4, sequence (whole entry, looked up): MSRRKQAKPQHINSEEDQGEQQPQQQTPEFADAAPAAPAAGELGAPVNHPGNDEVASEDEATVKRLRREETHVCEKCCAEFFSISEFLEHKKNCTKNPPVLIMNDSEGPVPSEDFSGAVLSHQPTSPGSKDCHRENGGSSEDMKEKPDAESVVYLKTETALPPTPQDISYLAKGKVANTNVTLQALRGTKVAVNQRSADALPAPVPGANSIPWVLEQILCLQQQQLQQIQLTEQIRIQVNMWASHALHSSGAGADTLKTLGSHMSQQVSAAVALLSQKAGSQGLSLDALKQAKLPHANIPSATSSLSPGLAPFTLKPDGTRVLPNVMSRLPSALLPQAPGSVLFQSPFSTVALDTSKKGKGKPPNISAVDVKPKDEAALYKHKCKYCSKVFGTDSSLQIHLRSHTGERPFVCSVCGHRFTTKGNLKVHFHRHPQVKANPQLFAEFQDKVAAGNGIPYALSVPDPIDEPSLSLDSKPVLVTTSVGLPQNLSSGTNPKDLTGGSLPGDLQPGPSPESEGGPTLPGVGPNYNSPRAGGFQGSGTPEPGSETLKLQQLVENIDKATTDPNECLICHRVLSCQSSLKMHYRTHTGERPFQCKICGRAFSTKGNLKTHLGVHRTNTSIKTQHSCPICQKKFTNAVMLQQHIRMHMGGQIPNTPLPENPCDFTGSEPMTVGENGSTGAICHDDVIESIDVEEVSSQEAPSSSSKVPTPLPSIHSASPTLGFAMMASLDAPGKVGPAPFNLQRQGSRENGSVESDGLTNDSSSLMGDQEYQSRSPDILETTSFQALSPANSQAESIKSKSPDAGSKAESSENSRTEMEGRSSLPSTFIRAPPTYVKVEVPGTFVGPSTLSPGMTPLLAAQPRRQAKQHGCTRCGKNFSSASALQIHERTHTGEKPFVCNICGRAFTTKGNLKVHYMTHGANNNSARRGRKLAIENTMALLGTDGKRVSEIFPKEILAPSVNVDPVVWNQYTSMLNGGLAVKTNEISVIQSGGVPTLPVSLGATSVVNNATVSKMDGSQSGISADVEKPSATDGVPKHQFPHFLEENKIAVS
Notes: 8-mer, flanks averaged, mean of replicates
For `CCTTCCCC`, the E-score was -0.283.
`ACGATCAA` has an E-score of 0.208.
`AGATGGCT` has an E-score of 0.07.
The E-score of `TGGAGGAA` is reported as 0.00713.
`GTGGCAGA` gave an E-score of -0.262.
The E-score of `ATCAAGGC` is reported as 0.0204.
`TAACAGTA` gave an E-score of 0.233.
`GCTGCGCA` gave an E-score of -0.236.
With `AAGAACGC` the E-score was 0.0166.

Single results of other studies
The fold induction of `PhoQ, residues 284 288 289 292 302 303 ALVSVA` is reported as 14.4 (PhoP, residues 12 14 15 18 19 AQALL (Escherichia coli, UniProt P23836); Sort-seq, item: YFP reporter; E. coli; PhoQ-PhoP variant library, added: 10 µM Mg2+; baseline: high Mg2+ state, higher = stronger signaling).
